# Experimental data of several laboratories.
# ± marks the error that the study gave.
# Method: steady-state kinetics
# B1: protein N172D (Rhodopseudomonas palustris, UniProt Q6N3R9); chain MSNVRVLATDLAFPEGPVVMPDGSVVLVEIRAQQLTRVWPDGRKEVVAKVPGGPNGAALGPDGKMYICNNGGFGWFPSRGTMMPGAPAPHEYIGGSIQRVDLQSGEVETLFDKCGEHPLKGPNDLVFDKHGGLWFTDLGKRRARDMDVGAAYYIKPGMTEITEQVFGTLPLDGIGLSPDEATMYAAETPTGRLWAFDLSGPGEVKPRDVIYRGEKGKPICGLGGYQMFDSLAVEASGNVCVATLVSGCISVIAPDGTLVEQVPTGDRVTTNIAFGGPDLKTAYITLSGKGELIAMDWSRPGLPLNFLNK
# B2: Lxyl-p1-1 A72T (Lentinula edodes, UniProt G8GLN9); chain YFSGLGLGSERSIFRRDLNSTGDESNSTQWPAPLANGGKSWASAFKKAKSTVTEMTVEELANITSGVIGLCVGVTGAVTRLGIPELCLQDGPIGPRGVHGSSQFPAGLTVAATWDRTLMYARARGMGQEFHDQGVHIALAPVTGGPLGRTPLNGRGWEGTFADPYACGEASYQSVKGLTDAGVATVSKHWIAYEQETSRNLYIEFDGVSQADIQLPISSNVDDLTMHELYMWSFAEAVRAGTNHIMCSYNRINNTHSCNNAKGLNQLLKTELNFQGGVVSDWGGQWDSVLSAENGLDVGMPGEGFLGELGDFWGTTLADLINNGTVSEDLVRDKVVRLLTGYYYLGQDINPPPPFVYNTIGAPTLNATSGYRNVRKPGTAELIKEIGSASVTLLKNTGSLPLKHPQRIAVLGNDATYNVLGPNACGLANSACDIDNLNGTLTTGGGSGSALSPYTITPLEALQKRAIEDNAEIAAVVANSNTTTGAEDAIAALLPDADVTFVFLNRYSEEGADAPDFSLGGDGDNLMDLAVTYSSNVVVVIHTTGVVDIEKWADNPNVTAILVAYLPGQEAGNSLVPVLYGDVAPSGKLPWTWGKSIDDYVPNGVVYTDAYSPQSNFTEGVFIDYRWFDKMGITPRYEFGFGLSYTTFTYSNLIVDHGRWAKDYSSVMETAEPFAEWDGTNSLYDVIFTVFATITNTGNLTGSEVAQLYISIPGDNQPVRQLRGFDKIKDLPVGDSAVVTFPIRRKDVSSWSVVDQLWYVPNGDFLISVGGSSRDLPLNTTWTP
# B3: TcC (Trypanosoma cruzi, UniProt Q4DGA3); chain MPREYEFAEKILFTEEEIRTRIMEVAKRIADDYKGKGLRPYVNPLVLISVLKGSFMFTADLCRALSDFNVPVRMEFICVSSYGEGVTSSGQVRMLLDTRHSIEGHHVLIVEDIVDTALTLNYLYHMYFTRRPASLKTVVLLDKREGRRVPFSADYVVANIPNAFVIGYGLDYDDTYRELRDIVVLRPEVYAEREAARQKKQRAIGSADTDRDAKREFHSKY
# B4: enzyme L163H/N249W (Thermobifida fusca, UniProt Q47RK4); chain MTDVYILDAVRTPFGRYGGALSGIRPDDLAAHVLRALAERSPGLDPAAVDDVFFGDANGAGEDNRNVARMAALLAGWPTSVPGVTLNRLCGSGMESVIAANRAIAVGDASLAVAGGVESMSRAPWVLPKPAQGFPTGHETLYSTTLGWRMVNPAMPEQWTVSHGESTEQVAATYGISRAEQDAFALRSHERAARAWAEGVFDAEITQIPGAELERDESIRETSAEKLAALKPAFRPDGTITAGNASPLWDGAAALLIGDAAAAERVGREPLARIVSRGVAAVDPDVFGIGPVQAAEIALRRAGIGWDDLSVVELNEAFAAQSLACLKLWPDLDPEIVNPNGGAIAIGHPLGASGARIVGTLAHELHRRGGGWGLAAICIGVGQGLAVVLHR
# B5: enzyme (Streptomyces coelicolor, UniProt Q9F1Y6); chain MPDSGTLGTPPPEQGPTPPTTLPDVPAPVIPSASVTSAASDFLAALHPPVTVPDPAPPPPPAPAAGNPPDTVTGDSVLQRILRGPTGPGTTSLAPAVRYGRQPGPEAPASAPPAAGRAVPGLYHHPVPEPDPVRVEEVSRRIKRWAEDEVQLYPEEWEGQFDGFSVGRYMVGCHPDAPTVDHLMLATRLMVAENAVDDCYCEDHGGSPVGLGGRLLLAHTAIDHFHSTAEYTPTWQASLAADAPRRAYDSAMGYFVRAATPSQSDRYRHDMARLHLGYLAEGAWAQTGHVPEVWEYLAMRQFNNFRPCPTITDTVGGYELPADLHARPDMQRVIALAGNATTIVNDLYSYTKELNSPGRHLNLPVVIAEREQLCERDAYLKAVEVHNELQHSFEAAAADLAEACPLPPVLRFLRGVAAWVDGNHDWHRTNTYRYSLPDFW
# B6: enzyme E217L/L163H/N249W (Thermobifida fusca, UniProt Q47RK4); chain MTDVYILDAVRTPFGRYGGALSGIRPDDLAAHVLRALAERSPGLDPAAVDDVFFGDANGAGEDNRNVARMAALLAGWPTSVPGVTLNRLCGSGMESVIAANRAIAVGDASLAVAGGVESMSRAPWVLPKPAQGFPTGHETLYSTTLGWRMVNPAMPEQWTVSHGESTEQVAATYGISRAEQDAFALRSHERAARAWAEGVFDAEITQIPGAELERDLSIRETSAEKLAALKPAFRPDGTITAGNASPLWDGAAALLIGDAAAAERVGREPLARIVSRGVAAVDPDVFGIGPVQAAEIALRRAGIGWDDLSVVELNEAFAAQSLACLKLWPDLDPEIVNPNGGAIAIGHPLGASGARIVGTLAHELHRRGGGWGLAAICIGVGQGLAVVLHR
# B7: enzyme N249W (Thermobifida fusca, UniProt Q47RK4); chain MTDVYILDAVRTPFGRYGGALSGIRPDDLAAHVLRALAERSPGLDPAAVDDVFFGDANGAGEDNRNVARMAALLAGWPTSVPGVTLNRLCGSGMESVIAANRAIAVGDASLAVAGGVESMSRAPWVLPKPAQGFPTGHETLYSTTLGWRMVNPAMPEQWTVSLGESTEQVAATYGISRAEQDAFALRSHERAARAWAEGVFDAEITQIPGAELERDESIRETSAEKLAALKPAFRPDGTITAGNASPLWDGAAALLIGDAAAAERVGREPLARIVSRGVAAVDPDVFGIGPVQAAEIALRRAGIGWDDLSVVELNEAFAAQSLACLKLWPDLDPEIVNPNGGAIAIGHPLGASGARIVGTLAHELHRRGGGWGLAAICIGVGQGLAVVLHR
# UniProt G3XD23, sequence (whole entry, looked up): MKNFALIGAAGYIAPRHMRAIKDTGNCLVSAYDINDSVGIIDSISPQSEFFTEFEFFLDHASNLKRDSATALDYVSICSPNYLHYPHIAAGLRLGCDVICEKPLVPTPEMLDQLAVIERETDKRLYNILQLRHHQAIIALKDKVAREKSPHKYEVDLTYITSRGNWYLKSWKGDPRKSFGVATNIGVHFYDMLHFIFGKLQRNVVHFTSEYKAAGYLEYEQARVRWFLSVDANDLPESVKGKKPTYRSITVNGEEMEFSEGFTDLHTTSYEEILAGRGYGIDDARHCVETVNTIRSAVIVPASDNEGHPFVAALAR
# UniProt Q8ZMX2, sequence (whole entry, looked up): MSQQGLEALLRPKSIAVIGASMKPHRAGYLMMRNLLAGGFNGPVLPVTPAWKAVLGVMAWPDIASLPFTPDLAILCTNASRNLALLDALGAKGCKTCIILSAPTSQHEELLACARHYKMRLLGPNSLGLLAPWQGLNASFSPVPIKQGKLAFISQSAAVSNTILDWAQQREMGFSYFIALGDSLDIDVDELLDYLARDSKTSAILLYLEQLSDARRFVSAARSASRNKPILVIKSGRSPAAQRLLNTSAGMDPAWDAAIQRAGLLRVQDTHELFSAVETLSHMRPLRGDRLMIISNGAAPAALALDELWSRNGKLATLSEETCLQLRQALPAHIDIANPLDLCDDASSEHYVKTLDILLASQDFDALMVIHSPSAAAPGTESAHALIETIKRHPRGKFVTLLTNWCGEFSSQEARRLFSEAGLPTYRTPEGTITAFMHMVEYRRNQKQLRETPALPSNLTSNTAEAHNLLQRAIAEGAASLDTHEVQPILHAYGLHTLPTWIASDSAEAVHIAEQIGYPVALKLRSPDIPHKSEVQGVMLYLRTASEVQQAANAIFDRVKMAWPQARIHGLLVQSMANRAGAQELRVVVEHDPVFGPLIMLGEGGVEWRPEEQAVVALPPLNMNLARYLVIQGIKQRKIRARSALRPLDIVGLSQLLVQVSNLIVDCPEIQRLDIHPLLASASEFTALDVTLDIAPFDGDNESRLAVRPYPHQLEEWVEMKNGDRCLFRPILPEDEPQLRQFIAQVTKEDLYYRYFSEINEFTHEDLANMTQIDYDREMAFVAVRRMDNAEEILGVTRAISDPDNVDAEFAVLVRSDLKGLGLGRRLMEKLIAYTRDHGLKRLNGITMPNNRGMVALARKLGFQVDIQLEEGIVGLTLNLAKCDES
# UniProt Q6XEC0, sequence (whole entry, looked up): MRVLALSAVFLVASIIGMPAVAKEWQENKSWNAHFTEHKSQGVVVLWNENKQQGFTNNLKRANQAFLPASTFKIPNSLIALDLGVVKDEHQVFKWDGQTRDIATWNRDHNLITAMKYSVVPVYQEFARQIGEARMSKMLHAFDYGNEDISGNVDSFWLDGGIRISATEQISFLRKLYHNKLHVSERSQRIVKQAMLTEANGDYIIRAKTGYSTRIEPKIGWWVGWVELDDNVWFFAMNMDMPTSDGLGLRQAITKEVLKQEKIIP
# UniProt P0A0C1, sequence (whole entry, looked up): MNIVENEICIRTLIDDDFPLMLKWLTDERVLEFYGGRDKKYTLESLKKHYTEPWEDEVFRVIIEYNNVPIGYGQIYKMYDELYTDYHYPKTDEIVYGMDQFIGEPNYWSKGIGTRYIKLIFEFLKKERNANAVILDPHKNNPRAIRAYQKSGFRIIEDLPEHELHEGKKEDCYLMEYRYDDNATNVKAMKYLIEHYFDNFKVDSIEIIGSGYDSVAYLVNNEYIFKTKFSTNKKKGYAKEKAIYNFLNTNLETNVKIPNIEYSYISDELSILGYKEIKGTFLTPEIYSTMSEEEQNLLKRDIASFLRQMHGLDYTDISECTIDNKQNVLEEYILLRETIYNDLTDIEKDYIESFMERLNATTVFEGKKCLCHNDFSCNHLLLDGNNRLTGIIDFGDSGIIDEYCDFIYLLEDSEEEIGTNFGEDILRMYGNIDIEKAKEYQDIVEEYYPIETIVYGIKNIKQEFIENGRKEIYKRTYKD
Molecule,substrate,setting,kcat/Km
"aacA-aphD (Staphylococcus aureus, UniProt P0A0C1)",NCC[C@H](O)C(=O)N[C@@H]1C[C@H](N)[C@@H](O[C@H]2O[C@H](CN)[C@@H](O)[C@H](O)[C@H]2O)[C@H](O)[C@H]1O[C@H]1O[C@H](CO)[C@@H](O)[C@H](N)[C@H]1O,"pH 7.5, 25 °C",23000 M⁻¹ s⁻¹
"wbpB (Pseudomonas aeruginosa, UniProt G3XD23)",O=C(O)CCC(=O)C(=O)O,"pH 8.5, 25 °C",4.1e+06 M⁻¹ s⁻¹
ω-transaminase A60V/E38Q/I154V/M128F/P9A/S87N/W58G (Pseudomonas jessenii),O=C1CCc2ccccc21,"pH 8, 56 °C, apparent, added: isopropylamine 1 M, PLP 0.05 mM",800 ± 100 M⁻¹ s⁻¹
"enzyme (Paenarthrobacter nicotinovorans, UniProt P08159)",CN1CCC[C@@H]1c1ccc(O)nc1,"pH 8, 25 °C",380000 ± 52000 M⁻¹ s⁻¹
"CYP2C19 (Homo sapiens, UniProt P33261)",CCOC(=O)C1(c2ccccc2)CCN(C)CC1,pH 7.4,2830 ± 500 M⁻¹ s⁻¹
B1 (protein N172D),O=C1CCc2ccccc2O1,"pH 8, NaCl 150 mM, no saturation, added: CaCl2 1 mM",660 M⁻¹ s⁻¹
MilB F17Y (Streptomyces rimofaciens),Nc1ccn([C@H]2C[C@H](O)[C@@H](COP(=O)(O)O)O2)c(=O)n1,"pH 7.5, 37 °C",100 M⁻¹ s⁻¹
B2 (Lxyl-p1-1 A72T),[H][C@]12[C@H](OC(=O)c3ccccc3)[C@]3(O)C[C@H](OC(=O)[C@H](O)[C@@H](NC(=O)c4ccccc4)c4ccccc4)C(C)=C([C@@H](O)C(=O)[C@]1(C)[C@@H](O[C@@H]1OC[C@@H](O)[C@H](O)[C@H]1O)C[C@@]1([H])OC[C@@]21OC(C)=O)C3(C)C,,4540 ± 40 M⁻¹ s⁻¹
B3 (TcC),Oc1ncnc2[nH]ncc12,"pH 8.3, 37 °C, apparent, added: PRPP 1 mM, MgCl2 12 mM",8000 ± 2000 M⁻¹ s⁻¹
B4 (enzyme L163H/N249W),CC(=O)SCCNC(=O)CCNC(=O)[C@H](O)C(C)(C)COP(=O)(O)OP(=O)(O)OC[C@H]1O[C@@H](n2cnc3c(N)ncnc32)[C@H](O)[C@@H]1OP(=O)(O)O,"pH 7.4, 37 °C",1.67 M⁻¹ s⁻¹
B5 (enzyme),CC(C)=CCC/C(C)=C(\C)COP(=O)(O)OP(=O)(O)O,"pH 6.7, 30 °C",1110 M⁻¹ s⁻¹
B6 (enzyme E217L/L163H/N249W),CC(C)(COP(=O)(O)OP(=O)(O)OC[C@H]1O[C@@H](n2cnc3c(N)ncnc32)[C@H](O)[C@@H]1OP(=O)(O)O)[C@@H](O)C(=O)NCCC(=O)NCCSC(=O)CC(=O)O,"pH 7.4, 37 °C",1.17 M⁻¹ s⁻¹
"OXA-48 (Klebsiella pneumoniae, UniProt Q6XEC0)",CC(=O)OCC1=C(C(=O)O)N2C(=O)[C@@H](NC(=O)Cc3cccs3)[C@H]2SC1,"pH 7.2, 30 °C",20000 M⁻¹ s⁻¹
B7 (enzyme N249W),CC(C)(COP(=O)(O)OP(=O)(O)OC[C@H]1O[C@@H](n2cnc3c(N)ncnc32)[C@H](O)[C@@H]1OP(=O)(O)O)[C@@H](O)C(=O)NCCC(=O)NCCSC(=O)CCC(=O)O,"pH 7.4, 37 °C",4 M⁻¹ s⁻¹
"pat (Salmonella enterica, UniProt Q8ZMX2)",CC(=O)SCCNC(=O)CCNC(=O)[C@H](O)C(C)(C)COP(=O)(O)OP(=O)(O)OC[C@H]1O[C@@H](n2cnc3c(N)ncnc32)[C@H](O)[C@@H]1OP(=O)(O)O,"pH 7.5, 37 °C, apparent, sigmoidal fit, added: AcsC 400 µM",420000 ± 20000 M⁻¹ s⁻¹

# For quick reference, copied from above:
Molecule,substrate,setting,kcat/Km
B3 (TcC),Oc1ncnc2[nH]ncc12,"pH 8.3, 37 °C, apparent, added: PRPP 1 mM, MgCl2 12 mM",8000 ± 2000 M⁻¹ s⁻¹
"enzyme (Paenarthrobacter nicotinovorans, UniProt P08159)",CN1CCC[C@@H]1c1ccc(O)nc1,"pH 8, 25 °C",380000 ± 52000 M⁻¹ s⁻¹
